Measurements collected from several papers.
Numbered parts are unrelated; each lists some results of a single study.

Series 1
Target: Histone acetyltransferase KAT6A, winged helix 2, GST fusion (KAT6A, Homo sapiens, UniProt Q92794, residues 85-181)
Technique: protein binding microarray
Form: double-stranded DNA, one strand shown
Medium: in vitro
Concentration: not given
Setting: 8-mer, flanks averaged, mean of 2 arrays, mostly near background
Relative to: not given
Direction: higher = stronger binding
Target sequence (chain): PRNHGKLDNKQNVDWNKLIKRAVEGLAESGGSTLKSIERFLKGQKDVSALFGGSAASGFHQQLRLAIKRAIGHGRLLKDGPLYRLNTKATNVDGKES
| Strand | E-score |
| --- | --- |
| AATCTACA | 0.0714 |
| AAAGAATG | 0.0565 |
| CTCAGCAA | 0.154 |

Series 2
Target: RNA binding protein fox-1 homolog 2, RRM domain, GST-SBP tag (RBFOX2, Homo sapiens, UniProt O43251-10, residues 100-194)
Technique: RNA Bind-n-Seq
Form: RNA
Medium: in vitro
Concentration: 365 nM
Setting: natural RNA segment, single round, ends assumed
Relative to: no-protein control
Direction: higher = stronger binding
| Strand | RBNS enrichment (R) |
| --- | --- |
| GGGAGUUCUACAGUCCGACGAUCGAGAAGAGAGAUGGCCUGAGCAGGAACGGAGCUCUCCUCAGUUGGAAGCAAUGUGGGGCGCUGCGAGCCCCUCCCAGUCCUCUAGAGACUGUCUCCUUUCUGCCUCUGGUUGGAAUUCUCGGGUGCCAA | 0.49 |
| GGGAGUUCUACAGUCCGACGAUCAUUGUUUUGGUUUUGGUUUUGAUGGGGACUGGUCUUUAAGACUGUCAUUUGAUAUUUUUUUACAUCAGAGUUUAUCCCACAGUCCCCCAUCUCUCCCUCCUCCUUCCCUCUGGAAUUCUCGGGUGCCAA | 0.492 |
| GGGAGUUCUACAGUCCGACGAUCAAAUGUAAUACCUGAGCAAGCACAGCCUUGGGUGUGCUUGGACAAGAGACCCAGCGGCAGAGCACCUUUUACAUUUUGGACCGUUCAUGAAUGGGCAAUGUUGUGUUGAUUGGAAUUCUCGGGUGCCAA | 0.545 |

Series 3
Target: Interferon regulatory factor 5, full length, phosphomimetic (IRF5, Homo sapiens, UniProt Q13568-2, residues 1-514, K96S/S451D/S453D/S456D/S462D)
Technique: protein-binding microarray
Form: double-stranded DNA, one strand shown
Medium: in vitro
Concentration: 250 nM
Setting: 60-bp whole probe
With: salmon DNA 0.4 mg/ml
Relative to: random background probes
Direction: higher = stronger binding
| Strand | log fluorescence |
| --- | --- |
| GCCTAGCACTTAGTACTGCTTTTCCTTTAGTGCTAGGTCTTGATTCGCTTGACGCTGCTG | 0.737 z-score |
| GCCTAGCACTCAGTTTCTGATATGGTACTGTGCTAGGTCTTGATTCGCTTGACGCTGCTG | 3.32 z-score |
| GCCTAGCACGACGGTTTCGGGACTGGGCACGTGCTAGTCTTGATTCGCTTGACGCTGCTG | 4.75 z-score |

Further values, each from its own experiment
| Molecule | target | assay | test system | setting | how to read | measurement | value |
| --- | --- | --- | --- | --- | --- | --- | --- |
| PhoQ, residues 284 288 289 292 302 303 TTCLQL | PhoP, residues 12 14 15 18 19 TTLRV (Escherichia coli, UniProt P23836) | Sort-seq, refers to: YFP reporter | E. coli | PhoQ-PhoP variant library, with: 10 µM Mg2+ | relative to: high Mg2+ state, higher = stronger signaling | fold induction | 6.57 |

A few entries again (series 2):
| Strand | RBNS enrichment (R) |
| --- | --- |
| GGGAGUUCUACAGUCCGACGAUCAUUGUUUUGGUUUUGGUUUUGAUGGGGACUGGUCUUUAAGACUGUCAUUUGAUAUUUUUUUACAUCAGAGUUUAUCCCACAGUCCCCCAUCUCUCCCUCCUCCUUCCCUCUGGAAUUCUCGGGUGCCAA | 0.492 |
